Results of several laboratories.
Parts stem from different laboratories: compare values within a part only.

Series 1 — technique: protein-binding microarray; molecule type: double-stranded DNA, one strand shown; sample: in vitro; tested at: 0.8 µM; setting: whole 60-bp probe, no competitor; reading: higher = stronger binding; endpoint: fluorescence intensity; all sequences stand within: … GTCTTGATTCGCTTGACGCTGCTG
Target: Centromere-binding protein 1, full length, N-terminal tag (CBF1, Saccharomyces cerevisiae, UniProt P17106, residues 1-351)
Chain of UniProt P17106 (whole entry, looked up): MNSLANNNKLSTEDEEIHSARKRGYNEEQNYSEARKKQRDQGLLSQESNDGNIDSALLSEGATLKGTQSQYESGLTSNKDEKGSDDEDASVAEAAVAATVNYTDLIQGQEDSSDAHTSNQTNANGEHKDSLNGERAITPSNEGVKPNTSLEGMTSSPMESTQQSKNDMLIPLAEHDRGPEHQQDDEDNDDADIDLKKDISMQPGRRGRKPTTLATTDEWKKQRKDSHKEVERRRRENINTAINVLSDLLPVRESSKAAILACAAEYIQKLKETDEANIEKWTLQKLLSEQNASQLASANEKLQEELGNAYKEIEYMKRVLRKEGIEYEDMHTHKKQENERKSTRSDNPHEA
CTAACTAACTAGTGCATCACCACTTGTCTAAATTTC: 522 a.u.
GAAATTAAAGCACATGTCACGATTTAAAAAATCTAG: 2910 a.u.
CTAATAAAAAAATGTAACATCATATCTCAATGTTTC: 519 a.u.
CTACGGATTACTTTTCCCACGTGCGAAATCATCTTC: 5190 a.u.
CTAATTGAATAACCTCAGTCACCTTGTGCAAGATTC: 540 a.u.
GAAATTCACAACCATCACCATCGGGATGGTAATTAG: 478 a.u.
CTAAATCTTGCCTTCATCACCATTATTGAATTATTC: 563 a.u.
CTATTTGTAGTATTGAACGTGACAGGAAACAAATTC: 1830 a.u.
CCTAACTACTATACATTCGTGCAATAGCTTCGTACA: 523 a.u.
CTAAGTTTTTAGAACCTCGTGGTGAGGAGTGTTTTC: 615 a.u.
CTATTATTTTTAGAACGTGTGACAAAGTTGTTTTTC: 672 a.u.
CTACTAATATTCTTTTTCGTCACCGTGTTTATATTC: 616 a.u.

Series 2 — technique: protein-binding microarray; molecule type: double-stranded DNA, one strand shown; sample: in vitro; tested at: 250 nM; setting: 60-bp whole probe; added: salmon DNA 0.4 mg/ml; relative to: random background probes; reading: higher = stronger binding; endpoint: log fluorescence; all sequences stand within: GCCTAGCAC … GTCTTGATTCGCTTGACGCTGCTG
Target: Interferon regulatory factor 7, full length, phosphomimetic (IRF7, Homo sapiens, UniProt Q92985, residues 1-503, S101K/S471D/S472D/S475D/S476D/S477D/S483D/S484D/S487D)
Construct (chain): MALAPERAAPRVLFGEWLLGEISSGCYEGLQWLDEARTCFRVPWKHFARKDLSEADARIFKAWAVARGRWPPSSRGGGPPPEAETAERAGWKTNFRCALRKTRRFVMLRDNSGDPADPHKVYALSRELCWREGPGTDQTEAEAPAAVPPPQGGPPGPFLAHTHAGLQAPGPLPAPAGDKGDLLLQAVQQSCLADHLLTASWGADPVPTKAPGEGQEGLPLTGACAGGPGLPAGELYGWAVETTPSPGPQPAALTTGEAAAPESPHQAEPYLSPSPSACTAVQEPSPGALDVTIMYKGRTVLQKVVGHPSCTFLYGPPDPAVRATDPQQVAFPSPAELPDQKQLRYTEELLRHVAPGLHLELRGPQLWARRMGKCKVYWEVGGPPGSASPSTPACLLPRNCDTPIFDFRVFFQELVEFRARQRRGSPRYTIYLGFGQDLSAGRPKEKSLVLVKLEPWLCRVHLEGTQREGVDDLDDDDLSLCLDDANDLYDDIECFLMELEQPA
TATTTTCCTTTAAACTTTTAGTGCTAG: 3.97 z-score
GACGATTTCAGTCTGGAGACGTGCTAG: -0.231 z-score
CTTTAACTCATTTTCATTTTGTGCTAG: 1.91 z-score
TTAGGTCTCGGTATCGGCTAGTGCTAG: 2.27 z-score
AGTGGGGAGGGAGAGAATCCGTGCTAG: 0.143 z-score
CTAGAACTGAGTATCGATTAGTGCTAG: 0.846 z-score
TCAATTCTGCTTTGCAAACTGTGCTAG: 0.538 z-score
GACGGTTTCGACGCTGGGGACGTGCTA: 1.8 z-score
TCACGTGTTTTTCTCCTACTGTGCTAG: 0.336 z-score
TTAGGTCGCGGTTTCGGTTAGTGCTAG: 9.57 z-score
TCATGTCTGGAGTCTCTGACTGTGCTA: -0.313 z-score
TCATCTTCAGCACTCGGACTGTGCTAG: 0.357 z-score
AAGTGTTTCTCAACCAGTTTGTGCTAG: 0.328 z-score
GACGGAATCGGTATCGGGACGTGCTAG: 0.461 z-score
CCCCCAATCTCTCTTCACATGTGCTAG: 0.0345 z-score
TTAGGTTTCCTTCTCATTTAGTGCTAG: 2.21 z-score
TCACATATAATTTTGTCATCGTGCTAG: 0.504 z-score
GAGATTTTCATTATTGCTTCGTGCTAG: 0.795 z-score
GTCGATCTCAGTTTCGAGACGTGCTAG: 4.53 z-score
TAGGGACTCGGGTCTCCCTTGGTGCTA: 0.986 z-score
GACGATTTCGGGTATCTAGACGTGCTA: 0.474 z-score
TTAGAACTGGGGTTGCGATTAGTGCTA: -0.277 z-score
TTAGAATTGGGGTTTCGATTAGTGCTA: 6.16 z-score
GACTGTTTCCTACTGCTGACGTGCTAG: 1.63 z-score
GAGGGTATCGGGACTGGGGACGTGCTA: -0.4 z-score

Series 3 — technique: RNA Bind-n-Seq; molecule type: RNA; sample: in vitro; tested at: 365 nM; relative to: no-protein control; reading: higher = stronger binding; endpoint: RBNS enrichment (R)
Target: RNA binding protein fox-1 homolog 2, RRM domain, GST-SBP tag (RBFOX2, Homo sapiens, UniProt O43251-10, residues 100-194)
Setting: natural RNA segment, single round, ends assumed
All sequences stand within: GGGAGUUCUACAGUCCGACGAUC … UGGAAUUCUCGGGUGCCAA
GACACAAAAAGUAGCCACUGCGGUUAAAGCUUUGCUUAUUGUAACAGGCUUUUAUUUCCAGGUAACCUAUCUGUGGAAGACCUAAUUCUGAAUAGAGUAAUAGAUAUUAC: 0.375
GGAGGGAAGGGUUUCUCUAUUAAAAUGCAUUCGUUGUGUUUUUUAAGAUAGUGUAACUUGCUUAAAUUUCUUAUGUGACAUUAACAAAUAAAAAAGCUCUUUUAAUAUUG: 1.15
UUAUCUUUCUGGCUCCUAAUUCCUUUAAAAUUACAUUUGUUGCAGAACCUCCACAAGGCUAAAUAAAAUUACAUUUGUGACCAUCAGAGAACUGAAUAAACCAUUAACUG: 0.664
CCUCUUGUUUUUUGCUGCUGUAACUUACCAGAAAGUGUUCUAUAUUUAUUUCUGUUUGAAUUUGAAACAGUGUUAUGCUUACAAGACUUCAUAAUGAUUUUAUGUCUUGC: 1.22
GUGAGAGCAGAACCCCCAUUCCCCAGCCUCUGCUGGUAGCAUGUCGCAGUUUCCAUGUGUUUCAGGAUCUUCGGGCUGUCGUUAGACAGGUUAAUGAAGAACACUUCUCA: 1.15
UUUAAGCAUUUUAUCAAUCAUUAAAAUUUACUGCCAGUUGUGAGUGGCUUUUUAAUUAACUUGUCUUUCAUUGCACUUCACUCUGCCUGUUUUCAAGGGGAGUAAGAUUG: 1.71
CUGCCAAGUGAUGGAUUAUAAUGGUCUCUAGCAAAUGUGUGGUAAACAUUCAUAUGGCCAUUAAUUUUAACAUUAAAUCGUAGGUAGGGCAAUGUAGUAAAAUGAAAGAG: 0.74
AAGUCUGGUAUUAAAACCUCUCUUACUUUUAAACUUGAUUUUGCAGACUCUGGCAAUAAGCCUUCCAAAAUUCUGUGCCUUUUCUAUUAUCACCAAACAAUAUGUUAAGU: 0.732
GCAGCCUGGAAGGACAGGUGGAGGCUGGUACAGUGACUGUCCCAUGCCUGCCAUGGCCACAGGCUCUCUCUGUGCAUUCUCUCUGGAGUUAGCCUGCUUCUCACAGGACA: 0.697
CCCUCCCUUACAGGGUGGUGUAUAGCCAGGGCUAUACAAAAAGGGUGGCUAGUGACCUUUUCUCUCUCUUCUCUCUCUCUUCUCUCUUCUCUCUUCCCUUGAUCUUCCUU: 0.562
AAAUGUUUAAAGAAAUCAAAAGAAUCUAUUAGAUUUUAGAAAAACAUUUAAACUUUUUAAAAUACUUAUUAAAAAAUUUGUAUAAGCCACUUGUCUUGAAAACUGUGCAA: 0.904
AAACUGCUUCUGUAGUACCAUUUUGAUAUUAUGUCAGUUAUACAUAAUAUCUGACUAUUGUUUUCUAUUAAAUAUCAGAACCUUACUGGGUCUUUACACCUCUGUGAAGU: 1.29

Series 4 — target: UBE2Q1 UBC core domain (UniProt Q7Z7E8); technique: yeast two-hybrid; sample: yeast; setting: mostly zero background; relative to: not given; reading: higher = stronger interaction; endpoint: lacZ reporter activity
B1: RNF115 RING domain (UniProt Q9Y4L5); chain TQEQVDMGLECPVCKEDYTVEEEVRQLPCNHFFHSSCIVPWLELHDTCPVCRKSLNGEDSTR
B2: RNF130 RING domain (UniProt Q86XS8); chain DKETDPDFDHCAVCIESYKQNDVVRILPCKHVFHKSCVDPWLSEHCTCPMCKLNILKALGIV
B3: TRIM34 RING domain (UniProt Q9BYJ4); chain ILLNVQEEVTCPICLELLTEPLSLDCGHSLCRACITVSNKEAVTSMGGKSSCPVCGISYSFEHLQA
B4: RMND5B RING domain (UniProt Q96G75); chain MKCWYHSVFACPILRQQTSDSNPPIKLICGHVISRDALNKLINGGKLKCPYCPMEQNPADGK
B5: MARCHF2 RING domain (UniProt Q9P0N8); chain RLLSTVIRALDTPSDGPFCRICHEGANGECLLSPCGCTGTLGAVHKSCLEKWLSSSNTSYCELCHTEFAVEKRPRPLTEWL
B6: UBE4B RING domain (UniProt O95155); chain KNARAEIDYSDAPDEFRDPLMDTLMTDPVRLPSGTIMDRSIILRHLLNSPTDPFNRQTLTESMLEPVPELKEQIQAWMREKQNSDH
B7: RNF32 RING domain (UniProt Q9H0A6); chain VQALRRETHECSICLAPLSAAGGQRVGAGRRSREMALLSCSHVFHHACLLALEEFSVGDRPPFHACPLCRSCYQKKILEC
B8: PJA2 RING domain (UniProt O43164); chain DHTAIGQEQCCPICCSEYIKDDIATELPCHHFFHKPCVSIWLQKSGTCPVCRRHFPPAVIEA
B9: RFPL3 RING domain (UniProt O75679); chain MAALFQEASSCPVCSDYLEKPMSLECGCTVCLKCINSLQKEPHGEDLLCCCCSMVSQRNKIRP
Residues (chain): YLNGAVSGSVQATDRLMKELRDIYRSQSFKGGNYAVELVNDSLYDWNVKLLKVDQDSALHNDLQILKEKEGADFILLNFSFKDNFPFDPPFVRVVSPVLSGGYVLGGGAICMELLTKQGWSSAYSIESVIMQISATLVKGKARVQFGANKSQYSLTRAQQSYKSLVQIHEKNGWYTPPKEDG
B1 (RNF115 RING domain): 0
B2 (RNF130 RING domain): 0
B3 (TRIM34 RING domain): 0
B4 (RMND5B RING domain): 0
B5 (MARCHF2 RING domain): 0
B6 (UBE4B RING domain): 0
B7 (RNF32 RING domain): 0
EIKDYKARLTCPCCNMRKKDAVLTKCFHVFCFECVKTRYDTRQRKCPKCNAAFGANDFHR (RNF20 RING domain (UniProt Q5VTR2)): 0
B8 (PJA2 RING domain): 2150
B9 (RFPL3 RING domain): 0

Some of these lines once more (series 1):
CTAATTGAATAACCTCAGTCACCTTGTGCAAGATTC: 540 a.u.
GAAATTCACAACCATCACCATCGGGATGGTAATTAG: 478 a.u.
CTAAATCTTGCCTTCATCACCATTATTGAATTATTC: 563 a.u.
CTATTTGTAGTATTGAACGTGACAGGAAACAAATTC: 1830 a.u.
CCTAACTACTATACATTCGTGCAATAGCTTCGTACA: 523 a.u.
CTAAGTTTTTAGAACCTCGTGGTGAGGAGTGTTTTC: 615 a.u.
